Measurements pooled from the literature.
Each line is one published result; not all experiments were run side by side.
Organism: Klebsiella pneumoniae

Structure (SMILES)	assay	system	setting	MIC
CN(C)c1ncc(O)c2c1C[C@H]1C[C@H]3[C@H](N(C)C)C(O)=C(C(N)=O)C(=O)[C@@]3(O)C(O)=C1C2=O.Cl.Cl		tet(A)-carrying		> 32 mg/L
NCC[C@H](O)C(=O)N[C@@H]1C[C@H](N)[C@@H](O[C@H]2O[C@H](CN)[C@@H](O)[C@H](O)[C@H]2O)[C@H](O)[C@H]1O[C@H]1O[C@H](CO)[C@@H](O)[C@H](N)[C@H]1O	broth microdilution	parental, KPC-33		> 128 mg/L
CCCNc1nc(Cl)c2c(c1O)C(=O)C1=C(O)[C@]3(O)C(=O)C(C(N)=O)=C(O)[C@@H](N(C)C)[C@@H]3C[C@@H]1C2.Cl.Cl.Cl		tet(A)-carrying		32 mg/L
C[C@@H](O)[C@H]1C(=O)N2C(C(=O)O)=C(SCCN=CN)C[C@H]12		K2	after induction, together with: ceftazidime-avibactam 4/1	32 mg/L
CC[C@H](C)[C@H](NC(=O)CN)C(=O)NCC(=O)N[C@@H](CCCCN)C(=O)N[C@@H](Cc1ccccc1)C(=O)N[C@@H](CC(C)C)C(=O)N[C@@H](CCCCN)C(=O)N[C@@H](CCCCN)C(=O)N[C@@H](C)C(=O)N[C@@H](CCCCN)C(=O)N[C@@H](CCCCN)C(=O)N[C@@H](Cc1ccccc1)C(=O)NCC(=O)N[C@@H](CCCCN)C(=O)N[C@@H](C)C(=O)N[C@@H](Cc1ccccc1)C(=O)N[C@H](C(=O)N[C@@H](CCCCN)C(=O)N[C@H](C(=O)N[C@@H](CC(C)C)C(=O)N[C@@H](CCCCN)C(=O)N[C@@H](CCCCN)C(N)=O)[C@@H](C)CC)C(C)C	broth dilution	ATCC 700603		< 3.1 µM
CC[C@H](C)[C@H](NC(=O)CN)C(=O)NCC(=O)N[C@@H](C)C(=O)N[C@H](C(=O)N[C@@H](CC(C)C)C(=O)N[C@@H](CCCCN)C(=O)N[C@H](C(=O)N[C@@H](CC(C)C)C(=O)N[C@H](C(=O)N[C@H](C(=O)NCC(=O)N[C@@H](CC(C)C)C(=O)N1CCC[C@H]1C(=O)N[C@@H](C)C(=O)N[C@@H](CC(C)C)C(=O)N[C@H](C(=O)N[C@@H](CO)C(=O)N[C@@H](Cc1c[nH]c2ccccc12)C(=O)N[C@H](C(=O)N[C@@H](CCCCN)C(=O)N[C@@H](CCCNC(=N)N)C(=O)N[C@@H](CCCCN)C(=O)N[C@@H](CCCNC(=N)N)C(=O)N[C@@H](CCC(N)=O)C(=O)N[C@@H](CCC(N)=O)C(N)=O)[C@@H](C)CC)[C@@H](C)CC)[C@@H](C)O)[C@@H](C)O)C(C)C)C(C)C		NCCP 15866 carbapenem-resistant		16 µM
CN(C)[C@@H]1C(O)=C(C(N)=O)C(=O)[C@@]2(O)C(O)=C3C(=O)c4c(O)c(N)nc(Cl)c4C[C@H]3C[C@@H]12		tet(A)-carrying		> 32 mg/L
C[C@H]1COc2c(N3CCN(C)CC3)c(F)cc3c(=O)c(C(=O)O)cn1c23	broth microdilution	ATCC 43816 acrAB overexpressor		< 0.5 mg/L
CC(=O)N[C@@H](CCCCN)C(=O)N[C@@H](CCCCN)C(=O)N[C@@H](CC(C)C)C(=O)N[C@@H](CC(C)C)C(=O)N[C@@H](CCCCN)C(=O)N[C@@H](CC(C)C)C(=O)N[C@@H](CC(C)C)C(=O)N[C@@H](CCCCN)C(=O)N[C@@H](CCCCN)C(=O)N1CCC[C@H]1C(=O)N[C@@H](CC(C)C)C(=O)N[C@@H](CCCCN)C(=O)N[C@@H](CC(C)C)C(=O)N[C@@H](CC(C)C)C(=O)N[C@@H](C)C(N)=O	broth microdilution	ATCC 700603	18 h, 37 °C, compound alone	> 80 µM
CC[C@H](C)[C@H](NC(=O)[C@H](Cc1ccccc1)NC(=O)[C@@H](NC(=O)[C@H](Cc1c[nH]c2ccccc12)NC(=O)[C@@H]1CCCN1C(=O)[C@@H](NC(=O)[C@H](C)N)[C@@H](C)CC)[C@@H](C)CC)C(=O)N[C@@H](Cc1ccccc1)C(=O)N[C@@H](CCCNC(=N)N)C(=O)N[C@@H](CC(C)C)C(=O)N[C@@H](CC(C)C)C(=O)N[C@@H](CCCNC(=N)N)C(=O)N[C@@H](CCCCN)C(=O)NCC(N)=O	broth microdilution	ATCC 700603	18 h, 37 °C	15 µM
CC[C@H](C)[C@H](NC(=O)[C@H](CC(C)C)NC(=O)[C@H](CCCCN)NC(=O)[C@H](CC(C)C)NC(=O)CNC(=O)[C@@H](NC(=O)[C@H](CO)NC(=O)[C@@H](NC(=O)[C@@H](NC(=O)[C@H](CCC(N)=O)NC(=O)[C@H](Cc1c[nH]c2ccccc12)NC(=O)[C@H](CCCNC(=N)N)NC(=O)[C@H](CC(N)=O)NC(=O)[C@H](CCCNC(=N)N)NC(=O)[C@H](CCCNC(=N)N)NC(=O)[C@@H](NC(=O)[C@H](Cc1ccccc1)NC(=O)[C@H](CCCNC(=N)N)NC(=O)CNC(=O)[C@H](C)NC(=O)[C@H](CCCNC(=N)N)NC(=O)[C@H](CCCNC(=N)N)NC(=O)[C@H](CCCCN)NC(=O)[C@H](Cc1ccccc1)NC(=O)[C@H](CCCNC(=N)N)NC(=O)CNC(=O)[C@H](Cc1c[nH]c2ccccc12)NC(=O)[C@H](CCCNC(=N)N)NC(=O)CNC(=O)[C@H](CCCNC(=N)N)NC(=O)[C@@H](N)[C@@H](C)O)[C@@H](C)CC)[C@@H](C)CC)[C@@H](C)CC)[C@@H](C)O)C(=O)NCC(=O)O		ATCC 43823	highest concentration 50 µM	0.3 µM
C[C@@H](O)[C@H]1C(=O)N2C(C(=O)O)=C(S[C@@H]3CN[C@H](C(=O)N(C)C)C3)[C@H](C)[C@H]12	broth microdilution	KPC-25 producing		4 mg/L
CC(=O)N[C@@H](CCCCN)C(=O)N[C@@H](CCCCN)C(=O)N[C@@H](C)C(=O)N[C@@H](CC(C)C)C(=O)N[C@@H](CCCCN)C(=O)N[C@@H](CC(C)C)C(=O)N[C@@H](C)C(=O)N[C@@H](CCCCN)C(=O)N[C@@H](CCCCN)C(=O)N1CCC[C@H]1C(=O)N[C@@H](CC(C)C)C(=O)N[C@@H](CCCCN)C(=O)N[C@@H](CC(C)C)C(=O)N[C@@H](CC(C)C)C(=O)N[C@@H](CCCCN)C(N)=O	broth microdilution	ATCC 700603	18 h, 37 °C, compound alone	> 80 µM
COc1ccc2ccc(O)c(/C=N/[C@H]3CCCC[C@H]3/N=C/c3ccc(-c4ccccc4)cc3O)c2c1	bacterial growth, broth microdilution	carbapenem-resistant		> 40 µM
CC[C@H](C)[C@H](NC(=O)[C@H](CC(C)C)NC(=O)[C@@H](NC(=O)[C@@H](NC(=O)[C@@H](NC(=O)[C@H](CCCNC(=N)N)NC(=O)[C@H](CCCNC(=N)N)NC(=O)[C@H](CCCNC(=N)N)NC(=O)[C@@H](N)CCCNC(=N)N)C(C)C)[C@@H](C)CC)[C@@H](C)CC)C(=O)N[C@@H](CO)C(=O)N[C@@H](CC(C)C)C(=O)N[C@@H](CCCNC(=N)N)C(=O)N[C@@H](CCCNC(=N)N)C(=O)N[C@@H](CCCNC(=N)N)C(=O)N[C@@H](CCCNC(=N)N)C(=O)N[C@@H](Cc1ccccc1)C(=O)N[C@@H](CO)C(=O)N[C@@H](C)C(=O)N[C@@H](Cc1ccc(O)cc1)C(N)=O	broth microdilution	ATCC 13883	highest value reported	2 µM
CC(=O)N[C@@H](CCCCN)C(=O)N[C@@H](CCCCN)C(=O)N[C@@H](CC(C)C)C(=O)N[C@@H](CC(C)C)C(=O)N[C@@H](CCCCN)C(=O)N[C@@H](CC(C)C)C(=O)N[C@@H](C)C(=O)N[C@@H](CCCCN)C(=O)N[C@@H](CCCCN)C(=O)N1CCC[C@H]1C(=O)N[C@@H](CC(C)C)C(=O)N[C@@H](CCCCN)C(=O)N[C@@H](CC(C)C)C(=O)N[C@@H](CC(C)C)C(=O)N[C@@H](CCCCN)C(N)=O	broth microdilution	ATCC 700603	18 h, 37 °C, compound alone	> 80 µM
C[C@H]1COCCN1c1nc(NCc2cccnc2C(F)(F)F)c2cccnc2n1	broth microdilution			128 mg/L
CC[C@H](C)[C@H](NC(=O)CNC(=O)[C@H](CC(=O)O)NC(=O)[C@H](CCCNC(=N)N)NC(=O)[C@@H](NC(=O)[C@H](CC(N)=O)NC(=O)[C@H](CCCNC(=N)N)NC(=O)CNC(=O)[C@@H](NC(=O)[C@H](CCCCN)NC(=O)[C@H](CCC(=O)O)NC(=O)[C@@H](NC(=O)[C@H](CCCCN)NC(=O)[C@H](CCCCN)NC(=O)[C@H](Cc1ccccc1)NC(=O)[C@@H](NC(=O)[C@H](CCCCN)NC(=O)[C@H](Cc1c[nH]c2ccccc12)NC(=O)[C@@H](N)CCCNC(=N)N)[C@@H](C)CC)[C@@H](C)CC)C(C)C)C(C)C)C(=O)N[C@H](C(=O)N[C@@H](CCCCN)C(=O)N[C@@H](C)C(=O)NCC(=O)N1CCC[C@H]1C(=O)N[C@@H](C)C(=O)N[C@H](C(=O)N[C@@H](C)C(=O)N[C@H](C(=O)N[C@H](C(=O)NCC(=O)N[C@@H](CCC(N)=O)C(=O)N[C@@H](C)C(=O)N[C@@H](C)C(=O)N[C@H](C(=O)N[C@H](C(=O)N[C@H](C(=O)N[C@@H](CCCCN)C(N)=O)C(C)C)C(C)C)[C@@H](C)O)C(C)C)C(C)C)C(C)C)[C@@H](C)CC		NCCP 15864 carbapenem-resistant		2 µM
CC[C@H](C)[C@H](NC(=O)[C@H](CCCCN)NC(=O)[C@@H](NC(=O)[C@@H](NC(=O)[C@H](CC(C)C)NC(=O)[C@H](CCCNC(=N)N)NC(=O)[C@@H](NC(=O)[C@H](CC(C)C)NC(=O)[C@H](CCCNC(=N)N)NC(=O)CNC(=O)[C@H](Cc1ccccc1)NC(=O)[C@@H](N)CCCNC(=N)N)[C@@H](C)CC)[C@@H](C)CC)C(C)C)C(=O)N[C@@H](C)C(=O)N[C@@H](CCCNC(=N)N)C(=O)N[C@@H](CCCNC(=N)N)C(=O)N[C@@H](C)C(=O)N[C@@H](Cc1c[nH]cn1)C(=O)N[C@@H](CCCNC(=N)N)C(=O)N[C@@H](C)C(=O)N[C@@H](CCCNC(=N)N)C(=O)N[C@@H](CO)C(=O)N[C@@H](C)C(=O)N[C@H](C(=O)N[C@@H](CCCCN)C(=O)N[C@@H](C)C(=O)N[C@@H](C)C(=O)N[C@@H](CO)C(=O)N[C@@H](CC(N)=O)C(=O)N[C@H](C(=O)N[C@@H](C)C(=O)N[C@@H](CCC(=O)O)C(=O)N[C@@H](CC(C)C)C(=O)N[C@@H](C)C(=O)N[C@@H](Cc1c[nH]cn1)C(=O)NCC(=O)N[C@@H](CCC(=O)O)C(=O)O)C(C)C)C(C)C	bacterial growth, broth microdilution	cation-adjusted Mueller Hinton broth	18 h, 37 °C	4 µM

Some of these lines once more:
Structure (SMILES)	assay	system	setting	MIC
CC[C@H](C)[C@H](NC(=O)[C@H](CC(C)C)NC(=O)[C@H](CCCCN)NC(=O)[C@H](CC(C)C)NC(=O)CNC(=O)[C@@H](NC(=O)[C@H](CO)NC(=O)[C@@H](NC(=O)[C@@H](NC(=O)[C@H](CCC(N)=O)NC(=O)[C@H](Cc1c[nH]c2ccccc12)NC(=O)[C@H](CCCNC(=N)N)NC(=O)[C@H](CC(N)=O)NC(=O)[C@H](CCCNC(=N)N)NC(=O)[C@H](CCCNC(=N)N)NC(=O)[C@@H](NC(=O)[C@H](Cc1ccccc1)NC(=O)[C@H](CCCNC(=N)N)NC(=O)CNC(=O)[C@H](C)NC(=O)[C@H](CCCNC(=N)N)NC(=O)[C@H](CCCNC(=N)N)NC(=O)[C@H](CCCCN)NC(=O)[C@H](Cc1ccccc1)NC(=O)[C@H](CCCNC(=N)N)NC(=O)CNC(=O)[C@H](Cc1c[nH]c2ccccc12)NC(=O)[C@H](CCCNC(=N)N)NC(=O)CNC(=O)[C@H](CCCNC(=N)N)NC(=O)[C@@H](N)[C@@H](C)O)[C@@H](C)CC)[C@@H](C)CC)[C@@H](C)CC)[C@@H](C)O)C(=O)NCC(=O)O		ATCC 43823	highest concentration 50 µM	0.3 µM
CC[C@H](C)[C@H](NC(=O)[C@H](Cc1ccccc1)NC(=O)[C@@H](NC(=O)[C@H](Cc1c[nH]c2ccccc12)NC(=O)[C@@H]1CCCN1C(=O)[C@@H](NC(=O)[C@H](C)N)[C@@H](C)CC)[C@@H](C)CC)C(=O)N[C@@H](Cc1ccccc1)C(=O)N[C@@H](CCCNC(=N)N)C(=O)N[C@@H](CC(C)C)C(=O)N[C@@H](CC(C)C)C(=O)N[C@@H](CCCNC(=N)N)C(=O)N[C@@H](CCCCN)C(=O)NCC(N)=O	broth microdilution	ATCC 700603	18 h, 37 °C	15 µM
